# Measured values gathered from unrelated publications.
# Platelet-activating factor acetylhydrolase 2, cytoplasmic: Platelet-activating factor acetylhydrolase 2, cytoplasmic (Mus musculus, UniProt Q8VDG7)
# UniProt Q8VDG7, sequence (whole entry, looked up): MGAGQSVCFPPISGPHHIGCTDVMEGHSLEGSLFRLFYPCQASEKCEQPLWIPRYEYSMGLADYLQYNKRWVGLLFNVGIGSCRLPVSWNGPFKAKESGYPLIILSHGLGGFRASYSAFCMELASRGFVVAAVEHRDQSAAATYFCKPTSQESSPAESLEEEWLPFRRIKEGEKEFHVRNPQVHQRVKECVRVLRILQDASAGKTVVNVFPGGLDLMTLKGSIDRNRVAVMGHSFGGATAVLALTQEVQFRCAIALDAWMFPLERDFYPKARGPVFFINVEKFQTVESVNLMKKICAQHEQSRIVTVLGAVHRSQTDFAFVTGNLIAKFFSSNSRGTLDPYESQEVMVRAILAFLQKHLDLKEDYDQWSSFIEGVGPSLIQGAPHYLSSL
# Neutral cholesterol ester hydrolase 1: Neutral cholesterol ester hydrolase 1 (Mus musculus, UniProt Q8BLF1)
# UniProt Q8BLF1, sequence (whole entry, looked up): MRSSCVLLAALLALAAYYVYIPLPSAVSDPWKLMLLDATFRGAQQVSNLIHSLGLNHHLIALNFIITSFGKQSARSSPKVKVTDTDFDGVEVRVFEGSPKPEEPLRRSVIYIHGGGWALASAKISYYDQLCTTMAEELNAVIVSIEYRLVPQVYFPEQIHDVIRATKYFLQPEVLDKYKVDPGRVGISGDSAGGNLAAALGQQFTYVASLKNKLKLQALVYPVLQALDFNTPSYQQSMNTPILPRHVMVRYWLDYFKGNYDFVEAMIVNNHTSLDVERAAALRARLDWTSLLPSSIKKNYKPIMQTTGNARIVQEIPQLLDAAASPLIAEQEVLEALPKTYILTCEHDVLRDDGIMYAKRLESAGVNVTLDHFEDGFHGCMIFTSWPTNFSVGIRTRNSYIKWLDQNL
# Breakpoint cluster region protein GAP domain: Breakpoint cluster region protein, GAP domain (Homo sapiens, UniProt P11274)
# UniProt P11274, sequence (whole entry, looked up): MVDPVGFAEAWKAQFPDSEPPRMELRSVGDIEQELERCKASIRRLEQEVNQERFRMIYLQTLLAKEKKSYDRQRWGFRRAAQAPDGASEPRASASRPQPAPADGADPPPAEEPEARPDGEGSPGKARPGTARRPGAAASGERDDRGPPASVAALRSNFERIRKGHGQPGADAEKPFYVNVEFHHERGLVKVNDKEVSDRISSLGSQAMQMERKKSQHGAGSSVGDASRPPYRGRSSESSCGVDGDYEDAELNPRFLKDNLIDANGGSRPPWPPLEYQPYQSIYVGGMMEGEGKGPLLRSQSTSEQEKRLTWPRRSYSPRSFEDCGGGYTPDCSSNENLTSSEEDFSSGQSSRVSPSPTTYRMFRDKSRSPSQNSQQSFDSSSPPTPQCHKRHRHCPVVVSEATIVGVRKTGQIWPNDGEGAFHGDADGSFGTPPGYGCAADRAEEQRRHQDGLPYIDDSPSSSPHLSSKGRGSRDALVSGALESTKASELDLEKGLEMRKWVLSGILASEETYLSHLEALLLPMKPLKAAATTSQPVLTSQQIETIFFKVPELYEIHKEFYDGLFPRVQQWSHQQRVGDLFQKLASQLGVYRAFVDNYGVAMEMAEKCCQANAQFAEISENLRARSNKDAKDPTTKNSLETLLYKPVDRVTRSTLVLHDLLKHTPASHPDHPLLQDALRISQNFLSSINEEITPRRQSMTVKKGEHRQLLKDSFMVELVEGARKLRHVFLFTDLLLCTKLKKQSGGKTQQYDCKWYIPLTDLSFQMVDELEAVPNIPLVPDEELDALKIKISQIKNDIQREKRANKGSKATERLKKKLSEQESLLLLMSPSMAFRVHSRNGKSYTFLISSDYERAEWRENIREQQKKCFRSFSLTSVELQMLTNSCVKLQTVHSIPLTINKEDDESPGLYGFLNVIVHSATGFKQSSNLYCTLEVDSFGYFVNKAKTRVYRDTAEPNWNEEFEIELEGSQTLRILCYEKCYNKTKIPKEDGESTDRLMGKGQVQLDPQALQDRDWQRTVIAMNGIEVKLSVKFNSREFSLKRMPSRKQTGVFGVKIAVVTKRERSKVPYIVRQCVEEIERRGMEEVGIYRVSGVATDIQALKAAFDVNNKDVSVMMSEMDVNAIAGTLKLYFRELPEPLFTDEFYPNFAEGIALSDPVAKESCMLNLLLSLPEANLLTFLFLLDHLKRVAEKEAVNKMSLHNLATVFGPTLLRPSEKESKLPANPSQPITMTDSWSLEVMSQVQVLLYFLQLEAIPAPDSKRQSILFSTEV
# sn-1-specific diacylglycerol lipase ABHD11: sn-1-specific diacylglycerol lipase ABHD11 (Mus musculus, UniProt Q8K4F5)
# UniProt Q8K4F5, sequence (whole entry, looked up): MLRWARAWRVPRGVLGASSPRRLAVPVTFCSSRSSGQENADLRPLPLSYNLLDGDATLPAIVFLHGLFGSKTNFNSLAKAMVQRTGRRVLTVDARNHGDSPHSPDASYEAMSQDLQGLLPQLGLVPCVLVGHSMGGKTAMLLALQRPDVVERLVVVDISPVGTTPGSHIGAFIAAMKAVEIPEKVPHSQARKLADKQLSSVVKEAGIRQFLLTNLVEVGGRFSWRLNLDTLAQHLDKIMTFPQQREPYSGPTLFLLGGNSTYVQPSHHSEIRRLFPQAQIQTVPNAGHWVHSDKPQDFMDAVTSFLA
# PLAT: Tissue-type plasminogen activator (PLAT, Homo sapiens, UniProt P00750)
# UniProt P00750, sequence (whole entry, looked up): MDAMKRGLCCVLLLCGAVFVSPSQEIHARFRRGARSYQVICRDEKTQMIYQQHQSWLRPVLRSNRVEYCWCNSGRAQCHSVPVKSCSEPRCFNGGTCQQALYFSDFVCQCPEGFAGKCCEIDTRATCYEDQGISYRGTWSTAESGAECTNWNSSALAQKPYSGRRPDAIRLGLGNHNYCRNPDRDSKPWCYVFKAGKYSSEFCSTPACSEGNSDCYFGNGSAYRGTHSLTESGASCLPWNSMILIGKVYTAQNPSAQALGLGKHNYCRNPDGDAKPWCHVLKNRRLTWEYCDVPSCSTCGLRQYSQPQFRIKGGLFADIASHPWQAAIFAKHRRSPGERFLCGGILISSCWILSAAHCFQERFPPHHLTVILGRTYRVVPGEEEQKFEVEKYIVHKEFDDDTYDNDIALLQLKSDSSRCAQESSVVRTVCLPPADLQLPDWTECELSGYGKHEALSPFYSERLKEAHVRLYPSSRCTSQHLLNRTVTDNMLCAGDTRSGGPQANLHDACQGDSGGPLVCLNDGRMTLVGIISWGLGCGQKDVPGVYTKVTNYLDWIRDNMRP
# DRD4: D(4) dopamine receptor (DRD4, Homo sapiens, UniProt P21917)
# UniProt P21917, sequence (whole entry, looked up): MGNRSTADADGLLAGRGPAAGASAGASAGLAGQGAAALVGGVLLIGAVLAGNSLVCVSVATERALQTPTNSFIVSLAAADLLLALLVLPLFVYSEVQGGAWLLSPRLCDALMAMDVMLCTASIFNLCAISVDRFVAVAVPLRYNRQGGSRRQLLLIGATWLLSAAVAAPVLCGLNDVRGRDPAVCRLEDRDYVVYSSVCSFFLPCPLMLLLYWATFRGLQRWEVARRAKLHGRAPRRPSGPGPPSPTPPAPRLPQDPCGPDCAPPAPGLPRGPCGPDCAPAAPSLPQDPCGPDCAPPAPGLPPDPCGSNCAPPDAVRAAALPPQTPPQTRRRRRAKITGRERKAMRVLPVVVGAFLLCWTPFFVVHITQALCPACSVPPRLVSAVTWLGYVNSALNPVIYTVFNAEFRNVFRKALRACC
# HDAC3: Histone deacetylase 3 (HDAC3, Homo sapiens, UniProt O15379)
# UniProt O15379, sequence (whole entry, looked up): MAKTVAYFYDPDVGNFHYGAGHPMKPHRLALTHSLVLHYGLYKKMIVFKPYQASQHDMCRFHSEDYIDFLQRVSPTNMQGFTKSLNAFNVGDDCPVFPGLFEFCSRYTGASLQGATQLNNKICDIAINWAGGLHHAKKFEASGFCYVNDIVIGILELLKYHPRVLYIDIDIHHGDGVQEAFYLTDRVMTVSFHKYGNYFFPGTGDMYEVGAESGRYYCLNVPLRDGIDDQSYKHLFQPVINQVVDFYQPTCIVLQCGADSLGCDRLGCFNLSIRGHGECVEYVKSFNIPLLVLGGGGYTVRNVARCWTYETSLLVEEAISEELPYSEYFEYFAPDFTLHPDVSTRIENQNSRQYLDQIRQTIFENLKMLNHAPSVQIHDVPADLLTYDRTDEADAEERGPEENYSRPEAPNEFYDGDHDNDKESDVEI
# PARP2: Poly [ADP-ribose] polymerase 2 (PARP2, Homo sapiens, UniProt Q9UGN5)
# UniProt Q9UGN5, sequence (whole entry, looked up): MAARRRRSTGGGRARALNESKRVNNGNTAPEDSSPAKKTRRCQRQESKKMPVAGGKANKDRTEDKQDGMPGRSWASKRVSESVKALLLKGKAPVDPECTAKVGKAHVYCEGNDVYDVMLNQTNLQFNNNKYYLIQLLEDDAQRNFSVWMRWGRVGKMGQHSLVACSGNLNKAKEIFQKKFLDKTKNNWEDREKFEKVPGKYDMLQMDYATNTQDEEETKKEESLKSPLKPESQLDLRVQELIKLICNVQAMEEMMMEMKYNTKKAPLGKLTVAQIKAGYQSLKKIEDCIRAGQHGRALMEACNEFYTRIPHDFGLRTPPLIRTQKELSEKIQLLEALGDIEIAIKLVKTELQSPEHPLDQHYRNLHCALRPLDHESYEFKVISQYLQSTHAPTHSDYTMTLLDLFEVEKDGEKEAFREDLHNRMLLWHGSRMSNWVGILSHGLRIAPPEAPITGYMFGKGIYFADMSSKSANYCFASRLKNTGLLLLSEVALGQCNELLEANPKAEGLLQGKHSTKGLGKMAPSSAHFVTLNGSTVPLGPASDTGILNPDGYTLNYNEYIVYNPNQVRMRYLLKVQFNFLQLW
# SPHK1: Sphingosine kinase 1 (SPHK1, Homo sapiens, UniProt Q9NYA1)
# UniProt Q9NYA1, sequence (whole entry, looked up): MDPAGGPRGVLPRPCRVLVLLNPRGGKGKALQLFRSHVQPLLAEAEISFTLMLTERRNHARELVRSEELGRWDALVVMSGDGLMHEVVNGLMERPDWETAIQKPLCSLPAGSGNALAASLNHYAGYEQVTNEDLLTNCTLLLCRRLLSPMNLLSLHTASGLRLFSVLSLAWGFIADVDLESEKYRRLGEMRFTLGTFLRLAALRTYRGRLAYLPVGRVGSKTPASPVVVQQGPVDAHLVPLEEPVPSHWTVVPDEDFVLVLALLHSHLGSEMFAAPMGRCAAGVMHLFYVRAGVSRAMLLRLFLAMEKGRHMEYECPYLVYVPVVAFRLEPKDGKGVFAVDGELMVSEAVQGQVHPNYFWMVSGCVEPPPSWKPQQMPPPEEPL
# UniProt Q9NRW4, sequence (whole entry, looked up): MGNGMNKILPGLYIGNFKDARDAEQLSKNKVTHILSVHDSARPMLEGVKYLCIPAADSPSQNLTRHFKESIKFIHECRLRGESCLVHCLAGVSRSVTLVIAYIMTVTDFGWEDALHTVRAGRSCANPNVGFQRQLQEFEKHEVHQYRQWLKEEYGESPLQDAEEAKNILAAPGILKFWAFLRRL
Compound,target,assay,test system,conditions,inhibition
CN(C)C(=O)n1ccnn1,"Platelet-activating factor acetylhydrolase 2, cytoplasmic","serine hydrolase activity, inhibitor, competitive gel-based ABPP",mouse T-cell proteome,"1 µM, 30 min, 37 °C",< 50%
COc1ccc2nc(C)ccc2c1Nc1sn(C)c(=O)c1C#N,"NMNAT1 (Homo sapiens, UniProt Q9HAN9)","enzyme activity, inhibitor",,10 µM,67%
CCN(CC)C(=O)n1ccnn1,Neutral cholesterol ester hydrolase 1,"probe labeling, inhibitor, gel-based competitive ABPP",mouse T-cell proteome,"1 µM, 30 min, 37 °C",< 50%
OCC1OC(n2cnc3c(NCc4ccc(Br)s4)ncnc32)C(O)C1O (stereo not drawn),"SLC29A1 (Homo sapiens, UniProt Q99808)","ligand displacement, radioligand",,0.3 µM,63%
c1ccc(CSc2nnc(-c3ccco3)c(-c3ccco3)n2)cc1,Breakpoint cluster region protein GAP domain,GAP activity,,"10 µM, selectivity counter screen",-31.1%
CN1CCN(C(=O)n2ccnn2)CC1,sn-1-specific diacylglycerol lipase ABHD11,"serine hydrolase activity, inhibitor, competitive gel-based ABPP",mouse T-cell proteome,"1 µM, 30 min, 37 °C",< 50%
COc1ncc2nc(C)n(Cc3ncc(S(N)(=O)=O)cc3F)c2c1-c1ccccc1,"GABA-A receptor; alpha-1/beta-2/gamma-2 (Homo sapiens, UniProt P14867+P18507+P47870)","antagonist, cell-based",,10 µM,1.99%
C=CCNC(=O)[C@H](CCc1ccccc1)NC(=O)[C@H](CC(=O)NCC(C)(C)C)NC(=O)CCc1ccccc1,PLAT,"enzyme activity, inhibitor",,100 µM,12%
CC[C@H](C)[C@@H]1NC(=O)[C@H](Cc2ccccc2C(F)(F)F)NC(=O)CCSCc2cccc(n2)CSCCCNC(=O)[C@H](CCCCCC(=O)O)NC1=O,"HDAC8 (Homo sapiens, UniProt Q9BY41)","enzyme activity, inhibitor, fluorogenic",,30 µM,25%
Cc1cc(N2CCOCC2)nc2cc(Cl)ccc12,Breakpoint cluster region protein GAP domain,GAP activity,,"10 µM, selectivity counter screen",-19%
CS(=O)(=O)Nc1cccc(-c2csc3cnc(Nc4ccc(N5CCN(CCCCCOc6cccc7c6C(=O)N(C6CCC(=O)NC6=O)C7=O)CC5)cc4)nc23)c1 (stereo not drawn),"PRKDC (Homo sapiens, UniProt P78527)","target engagement in cells, inhibitor, chemoproteomics",MOLT-4,1 µM,-7.12%
Fc1cccc(OCC2CN(Cc3ncn4ccccc34)CCC2(F)F)c1 (stereo not drawn),DRD4,"ligand displacement, radioligand",,10 µM,48%
O=C(Nc1ccc(C(F)F)cc1)[C@H](CC1CCCCC1)Nc1nn2c(=O)ccnc2s1,"DUSP22 (Homo sapiens, UniProt Q9NRW4)","enzyme activity, inhibitor",,10 µM,-2%
Cc1c(COc2cc(OCc3cccc(C#N)c3)c(CN3CCCC[C@H]3C(=O)O)cc2Cl)cccc1-c1cccc(OCCCCCC(=O)NO)c1,HDAC3,"enzyme activity, inhibitor",,1 µM,93.2%
"CC(=O)C12NC(C)(C)CC1(C)C(=O)C1=C2c2c(c3c4n2C(C)(C)CC2=C4C4(CC(C)(C)NC(C)(C4)C2=O)CC3(C)C)C(=O)C(C)(C)N1 (single isomer, unassigned; (-))","SCN2A (Homo sapiens, UniProt Q99250)",ion current,HEK293T,40 µM,27%
Cc1csc(OCC2CN(Cc3ncc4ccccn34)CCC2(F)F)n1 (stereo not drawn),DRD4,"ligand displacement, radioligand",,10 µM,-2.8%
O=C(CN1CCO[C@@H](COc2cccc(Cl)c2)C1)N1CCc2ccccc21,"HTR6 (Homo sapiens, UniProt P50406)",radioligand binding,,"concentration not given, added: [3H]LSD",26.7%
Cc1nc2c(F)cc(-c3nc(Nc4ccc(CNC(=O)CCCCCCC(=O)NO)cc4)ncc3F)cc2n1C(C)C,"MOK (Homo sapiens, UniProt Q9UQ07)","enzyme activity, inhibitor",,1 µM,57%
CCOC(=O)C1(C)C(Br)=C(Cl)C(=O)N1c1ccc(F)cc1 (stereo not drawn),Breakpoint cluster region protein GAP domain,GAP activity,,"10 µM, selectivity counter screen",-24%
CC(=O)NCCNCc1cc(Cl)c(OCc2cccc(-c3cccc(OCc4ccc(/C=C/C(=O)NO)cc4)c3)c2C)cc1OCc1cccc(C#N)c1,HDAC3,"enzyme activity, inhibitor",,1 µM,20.2%
C=CC(=O)Nc1cccc(-c2cnc3[nH]cc(C(=O)NC(C)(C)C)c3n2)c1,"Tyrosine-protein kinase Lyn, isoform B (LYN, Homo sapiens, UniProt P07948)","enzyme activity, inhibitor",,0.1 µM,9%
CCCCCCC#Cc1cncc(-c2nnc(SC[C@H]3O[C@@H](n4ccc(=O)[nH]c4=O)[C@@H]4OC(C)(C)O[C@@H]43)n2C)c1,"mraY (Staphylococcus aureus, UniProt Q2FZ93)","cell-free assay, inhibitor",,250 µM,~28%
O=C1c2sc(-c3ccc(N4CCC(CO)CC4)nc3F)nc2CCN1c1cccnc1,"SLC6A4 (Homo sapiens, UniProt P31645)","ligand displacement, radioligand",,1 µM,-3%
O=C(N1CCCC1)n1ccnn1,sn-1-specific diacylglycerol lipase ABHD11,"serine hydrolase activity, inhibitor, competitive gel-based ABPP",mouse T-cell proteome,"1 µM, 30 min, 37 °C",> 95%
Cc1cc(C(=O)NCCNC(=O)c2cccc(COc3ccccc3C(N)=O)c2)n[nH]1,PARP2,"enzyme activity, inhibitor",,0.104 µM,100%
Cc1ccc(CNC(=O)C(CCc2ccccc2)NC(=O)C(NC(=O)c2ccc(OCc3ccc(C(C)(C)C)cc3)cc2)C(C)O)cc1 (stereo not drawn),PLAT,"enzyme activity, inhibitor",,100 µM,12%
O=C(n1ccnn1)n1c2ccccc2c2ccccc21,"Platelet-activating factor acetylhydrolase 2, cytoplasmic","serine hydrolase activity, inhibitor, competitive gel-based ABPP",mouse T-cell proteome,"1 µM, 30 min, 37 °C",< 50%
CC(=O)NCCNCc1cc(Cl)c(OCc2cccc(-c3cccc(OCc4ccc(C(=O)NO)cc4)c3)c2C)cc1OCc1cccc(C#N)c1,HDAC3,"enzyme activity, inhibitor",,1 µM,35.2%
CCn1cc(C(=O)O)c(=O)c2c(N)c(F)c(NC3CCCCC3)cc21,"Cyclin-dependent kinase 1, with cyclin B1 (CDK1, Homo sapiens, UniProt P06493)",kinase activity,,"0.1 µM, added: ATP at Km",34.8%
COc1cc(-n2cc3cc(F)cc(C(N)=O)c3n2)cc(Cl)c1C1CC(O)(CCO)Cc2ccccc21 (stereo not drawn),"PARP12 (Homo sapiens, UniProt Q9H0J9)","enzyme activity, inhibitor",,10 µM,7.89%
C/C=C/C(=O)Nc1ccc2nc(NCCCCCN(C)C)nc(NCCCCCCN(C)C)c2c1,"DNMT1 (Homo sapiens, UniProt P26358)","enzyme activity, inhibitor, radiometric",,10 µM,3%
COc1ccc(NC(=O)Nc2cccc(C(=O)N3CCC(C)CC3)c2)cc1,"Beta-lactam-inducible penicillin-binding protein (pbp, Staphylococcus aureus, UniProt P07944)","Bocillin-FL labelling, fluorescence polarization",,50 µM,no inhibition
Cc1cccc(O[C@H]2CCC[C@@H](C(C)CNCc3ccncc3)C2)c1 (relative stereo),SPHK1,"enzyme activity, inhibitor",,10 µM,-1%
C[C@@H]1CN(Cc2ccccc2)[C@H]2C[C@@H]1CC(=O)[C@@H]2C,"OPRK1 (Cavia porcellus, UniProt P41144)","binding, radioligand binding",guinea pig brain,"1 µM, added: [3H]U-69,593",0%
CC(C)(C)c1ccccc1OS(=O)(=O)Oc1cccc(C(=O)NO)c1,"Histone deacetylase 3, with NCoR2 DAD (HDAC3, Homo sapiens, UniProt O15379)","enzyme activity, fluorogenic",,10 µM,37%
O=C(CC1CC2CCC1C2)NCCNC(=O)Cn1c(=O)[nH]c(=O)c2ccccc21 (stereo not drawn),PARP2,"enzyme activity, inhibitor",,50 nM,34%
CC(=O)NCCNCc1cc(Cl)c(OCc2cccc(-c3cccc(OCCCCCC(=O)NO)c3)c2C)cc1OCc1cccc(C#N)c1,HDAC3,"enzyme activity, inhibitor",,1 µM,84.8%
O=C1c2sc(-c3ccc(N4CCC(F)C4)nc3F)nc2CCN1c1cccnc1 (stereo not drawn),"ADORA2B (Homo sapiens, UniProt P29275)","ligand displacement, radioligand",,1 µM,-4%
C=CCN(CC=C)C(=O)n1ccnn1,sn-1-specific diacylglycerol lipase ABHD11,"serine hydrolase activity, inhibitor, competitive gel-based ABPP",mouse T-cell proteome,"1 µM, 30 min, 37 °C",> 95%
CN1CCN(Cc2ccc(-c3ccc(CO[C@H]4CCC[C@@H]4NC(=O)c4cc(-c5cnn(C)c5)cnc4N)cc3)cc2)CC1,SPHK1,"enzyme activity, inhibitor",,0.1 µM,-7%
O=C(N(c1ccccc1)c1ccccc1)n1ccnn1,"Platelet-activating factor acetylhydrolase 2, cytoplasmic","serine hydrolase activity, inhibitor, competitive gel-based ABPP",mouse T-cell proteome,"1 µM, 30 min, 37 °C",< 50%
O=C1CO[C@H](CNC(=O)C2(c3ccc(Cl)cc3)CC2)CN1C1Cc2ccccc2C1,"CXCR2 (Homo sapiens, UniProt P25025)","β-arrestin recruitment, antagonist",,1 µM,0%
Cc1c(COc2cc(OCc3cccc(C#N)c3)c(CNC(CO)CO)cc2Cl)cccc1-c1cccc(OCCCCCC(=O)NO)c1,HDAC3,"enzyme activity, inhibitor",,1 µM,85.1%
Cn1sc(Nc2c(Cl)ccc3ncccc23)c(C#N)c1=O,PARP2,"enzyme activity, inhibitor",,10 µM,4%
Nc1ccc2c(c1)OC1(CCCCC1)O2,Breakpoint cluster region protein GAP domain,GAP activity,,"10 µM, selectivity counter screen",73%
Cc1c(COc2cc(OCc3cccc(C#N)c3)c(CNC(CO)CO)cc2Cl)cccc1-c1cccc(OCCCCCCC(=O)NO)c1,HDAC3,"enzyme activity, inhibitor",,1 µM,94%
C[Si](C)(C)C[C@@H](CN)CC(=O)O,"L-type calcium channel, rat","binding, radioligand binding",,75 µM,2%
CN(C(=O)n1ccnn1)c1ccccc1,Neutral cholesterol ester hydrolase 1,"probe labeling, inhibitor, gel-based competitive ABPP",mouse T-cell proteome,"1 µM, 30 min, 37 °C",< 50%
C[Si]1(C[C@H](CN)CC(=O)O)CCCC1,"Voltage-dependent calcium channel subunit alpha-2/delta-1 (Rattus norvegicus, UniProt P54290)","binding, radioligand binding",rat cerebral cortex membranes,"70 µM, added: [3H]gabapentin",87%
O=C(CCCc1ccc2c(c1)OCCO2)NCCNC(=O)Cn1c(=O)[nH]c(=O)c2ccccc21,"PARP1 (Homo sapiens, UniProt P09874)","enzyme activity, inhibitor",,0.104 µM,90%
CC(C)Cn1c(SCC(=O)N2CCc3ccccc3C2)nc2cc(Cl)ccc2c1=O,"ADRB1 (Homo sapiens, UniProt P08588)","ligand displacement, radioligand",,10 µM,1%

# Some of these lines once more:
Compound,target,assay,test system,conditions,inhibition
Cc1c(COc2cc(OCc3cccc(C#N)c3)c(CNC(CO)CO)cc2Cl)cccc1-c1cccc(OCCCCCC(=O)NO)c1,HDAC3,"enzyme activity, inhibitor",,1 µM,85.1%
Cn1sc(Nc2c(Cl)ccc3ncccc23)c(C#N)c1=O,PARP2,"enzyme activity, inhibitor",,10 µM,4%
Nc1ccc2c(c1)OC1(CCCCC1)O2,Breakpoint cluster region protein GAP domain,GAP activity,,"10 µM, selectivity counter screen",73%
Cc1c(COc2cc(OCc3cccc(C#N)c3)c(CNC(CO)CO)cc2Cl)cccc1-c1cccc(OCCCCCCC(=O)NO)c1,HDAC3,"enzyme activity, inhibitor",,1 µM,94%
C[Si](C)(C)C[C@@H](CN)CC(=O)O,"L-type calcium channel, rat","binding, radioligand binding",,75 µM,2%
